Assay results collected from several papers.
Compare with care: the assays were run in different laboratories. ± marks the error that the study gave.
Chain of UniProt P28074 (whole entry, looked up): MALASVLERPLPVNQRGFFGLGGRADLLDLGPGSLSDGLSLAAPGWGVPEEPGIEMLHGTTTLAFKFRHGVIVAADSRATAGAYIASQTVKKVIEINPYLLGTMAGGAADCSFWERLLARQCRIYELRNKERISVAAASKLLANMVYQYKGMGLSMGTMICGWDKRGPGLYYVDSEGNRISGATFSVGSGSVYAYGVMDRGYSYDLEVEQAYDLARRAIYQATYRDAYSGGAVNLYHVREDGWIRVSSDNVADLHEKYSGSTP
Chain of UniProt P08183 (whole entry, looked up): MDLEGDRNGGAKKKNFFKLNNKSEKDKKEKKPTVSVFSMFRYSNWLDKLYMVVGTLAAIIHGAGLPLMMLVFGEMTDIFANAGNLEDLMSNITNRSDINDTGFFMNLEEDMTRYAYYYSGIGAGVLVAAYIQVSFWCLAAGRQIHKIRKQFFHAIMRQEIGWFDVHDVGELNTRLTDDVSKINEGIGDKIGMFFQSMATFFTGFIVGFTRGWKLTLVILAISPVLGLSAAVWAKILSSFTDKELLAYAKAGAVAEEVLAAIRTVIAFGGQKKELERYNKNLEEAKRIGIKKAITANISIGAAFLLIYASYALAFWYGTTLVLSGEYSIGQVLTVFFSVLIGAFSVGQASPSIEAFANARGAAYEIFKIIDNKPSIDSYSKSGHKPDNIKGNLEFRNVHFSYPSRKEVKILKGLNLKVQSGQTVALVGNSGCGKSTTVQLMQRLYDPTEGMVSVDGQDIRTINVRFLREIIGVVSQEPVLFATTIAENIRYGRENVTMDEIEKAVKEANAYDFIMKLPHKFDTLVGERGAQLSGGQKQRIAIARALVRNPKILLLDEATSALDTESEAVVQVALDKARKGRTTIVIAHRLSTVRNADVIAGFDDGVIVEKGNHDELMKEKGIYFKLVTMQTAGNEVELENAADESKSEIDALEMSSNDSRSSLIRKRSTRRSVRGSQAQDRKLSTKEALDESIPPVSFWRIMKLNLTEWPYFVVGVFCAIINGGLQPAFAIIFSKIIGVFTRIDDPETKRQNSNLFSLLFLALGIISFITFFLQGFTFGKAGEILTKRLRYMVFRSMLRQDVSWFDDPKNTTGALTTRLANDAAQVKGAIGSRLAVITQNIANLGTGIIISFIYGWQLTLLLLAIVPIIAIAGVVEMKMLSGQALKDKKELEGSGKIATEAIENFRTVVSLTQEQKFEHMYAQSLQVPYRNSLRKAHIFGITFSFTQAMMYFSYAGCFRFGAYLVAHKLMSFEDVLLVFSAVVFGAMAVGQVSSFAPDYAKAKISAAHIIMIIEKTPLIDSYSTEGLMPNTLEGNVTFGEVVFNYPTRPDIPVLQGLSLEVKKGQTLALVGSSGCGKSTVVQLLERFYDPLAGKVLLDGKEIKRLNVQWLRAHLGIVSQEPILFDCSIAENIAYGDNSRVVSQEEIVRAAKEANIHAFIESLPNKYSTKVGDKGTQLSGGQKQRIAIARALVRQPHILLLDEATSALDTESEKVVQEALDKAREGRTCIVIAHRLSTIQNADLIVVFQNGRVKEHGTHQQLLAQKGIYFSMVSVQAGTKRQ
Chain of UniProt P27487 (whole entry, looked up): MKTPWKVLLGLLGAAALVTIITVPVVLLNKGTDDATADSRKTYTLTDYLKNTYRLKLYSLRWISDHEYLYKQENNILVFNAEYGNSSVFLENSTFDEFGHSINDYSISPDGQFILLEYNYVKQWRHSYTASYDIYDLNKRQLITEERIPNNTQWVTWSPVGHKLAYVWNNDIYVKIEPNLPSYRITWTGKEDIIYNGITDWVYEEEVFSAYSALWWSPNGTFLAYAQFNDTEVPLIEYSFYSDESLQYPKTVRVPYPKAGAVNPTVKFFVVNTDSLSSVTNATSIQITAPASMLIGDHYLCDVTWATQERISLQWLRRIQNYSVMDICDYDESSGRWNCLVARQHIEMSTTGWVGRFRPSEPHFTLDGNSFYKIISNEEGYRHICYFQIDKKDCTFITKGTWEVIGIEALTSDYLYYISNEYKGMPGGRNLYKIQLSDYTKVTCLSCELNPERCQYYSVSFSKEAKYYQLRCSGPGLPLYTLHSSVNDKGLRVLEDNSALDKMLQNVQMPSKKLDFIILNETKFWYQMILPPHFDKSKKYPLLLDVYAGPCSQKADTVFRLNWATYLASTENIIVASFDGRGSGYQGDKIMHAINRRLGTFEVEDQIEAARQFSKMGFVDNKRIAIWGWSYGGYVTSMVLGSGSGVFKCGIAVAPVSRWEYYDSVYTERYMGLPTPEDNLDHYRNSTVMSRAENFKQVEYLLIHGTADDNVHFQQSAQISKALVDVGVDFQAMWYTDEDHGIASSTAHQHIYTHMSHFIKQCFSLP
Chain of UniProt P53350 (whole entry, looked up): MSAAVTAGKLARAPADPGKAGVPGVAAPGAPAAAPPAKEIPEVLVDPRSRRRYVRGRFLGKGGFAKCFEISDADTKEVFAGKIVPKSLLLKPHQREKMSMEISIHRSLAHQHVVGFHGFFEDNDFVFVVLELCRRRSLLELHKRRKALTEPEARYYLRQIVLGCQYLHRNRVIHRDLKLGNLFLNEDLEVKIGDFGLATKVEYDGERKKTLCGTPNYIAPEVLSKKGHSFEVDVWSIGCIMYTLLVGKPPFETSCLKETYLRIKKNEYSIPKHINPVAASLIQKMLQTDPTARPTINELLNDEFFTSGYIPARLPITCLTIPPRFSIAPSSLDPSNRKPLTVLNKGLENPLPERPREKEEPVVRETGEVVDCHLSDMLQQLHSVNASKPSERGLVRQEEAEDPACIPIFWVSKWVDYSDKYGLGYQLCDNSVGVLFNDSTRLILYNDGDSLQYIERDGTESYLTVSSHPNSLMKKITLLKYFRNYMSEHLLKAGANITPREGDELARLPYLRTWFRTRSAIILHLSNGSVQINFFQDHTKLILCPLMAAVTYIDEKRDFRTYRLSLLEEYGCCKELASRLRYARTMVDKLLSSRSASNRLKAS
Chain of UniProt Q9Y253 (whole entry, looked up): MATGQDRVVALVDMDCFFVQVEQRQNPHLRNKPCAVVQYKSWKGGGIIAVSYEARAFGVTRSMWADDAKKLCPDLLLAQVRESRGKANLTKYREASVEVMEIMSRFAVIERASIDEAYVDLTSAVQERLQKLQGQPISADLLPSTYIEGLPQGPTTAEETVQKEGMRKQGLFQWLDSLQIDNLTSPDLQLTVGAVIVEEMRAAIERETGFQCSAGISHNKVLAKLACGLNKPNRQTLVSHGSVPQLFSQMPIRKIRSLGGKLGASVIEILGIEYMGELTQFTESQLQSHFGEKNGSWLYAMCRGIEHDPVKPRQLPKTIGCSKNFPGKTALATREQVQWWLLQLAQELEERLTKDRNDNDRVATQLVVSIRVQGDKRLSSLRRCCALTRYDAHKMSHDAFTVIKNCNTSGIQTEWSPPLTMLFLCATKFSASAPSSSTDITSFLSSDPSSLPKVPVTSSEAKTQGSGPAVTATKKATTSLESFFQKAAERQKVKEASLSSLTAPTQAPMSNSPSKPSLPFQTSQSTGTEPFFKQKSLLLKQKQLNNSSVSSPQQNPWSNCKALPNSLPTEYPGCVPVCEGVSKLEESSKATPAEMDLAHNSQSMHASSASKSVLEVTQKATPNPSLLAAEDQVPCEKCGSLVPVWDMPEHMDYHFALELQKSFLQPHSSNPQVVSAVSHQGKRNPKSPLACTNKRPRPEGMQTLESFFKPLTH
Chain of UniProt O75469 (whole entry, looked up): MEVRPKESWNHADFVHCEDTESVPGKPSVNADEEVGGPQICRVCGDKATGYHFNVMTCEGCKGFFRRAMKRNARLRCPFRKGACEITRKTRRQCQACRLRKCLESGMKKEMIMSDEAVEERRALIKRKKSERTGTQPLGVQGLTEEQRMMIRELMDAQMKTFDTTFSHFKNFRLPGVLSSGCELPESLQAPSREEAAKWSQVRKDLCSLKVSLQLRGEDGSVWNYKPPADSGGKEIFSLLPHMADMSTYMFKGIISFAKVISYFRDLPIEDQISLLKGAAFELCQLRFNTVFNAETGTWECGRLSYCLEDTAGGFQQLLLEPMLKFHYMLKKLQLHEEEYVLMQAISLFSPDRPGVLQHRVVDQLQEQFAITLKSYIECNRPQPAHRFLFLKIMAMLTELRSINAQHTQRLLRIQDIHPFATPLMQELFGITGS
Chain of UniProt P26718 (whole entry, looked up): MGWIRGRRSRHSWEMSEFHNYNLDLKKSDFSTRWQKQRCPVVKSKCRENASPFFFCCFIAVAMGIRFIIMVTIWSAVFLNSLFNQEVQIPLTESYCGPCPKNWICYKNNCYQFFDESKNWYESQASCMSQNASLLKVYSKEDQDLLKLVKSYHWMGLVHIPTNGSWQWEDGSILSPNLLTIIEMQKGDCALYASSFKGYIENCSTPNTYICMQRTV
Chain of UniProt Q13705 (whole entry, looked up): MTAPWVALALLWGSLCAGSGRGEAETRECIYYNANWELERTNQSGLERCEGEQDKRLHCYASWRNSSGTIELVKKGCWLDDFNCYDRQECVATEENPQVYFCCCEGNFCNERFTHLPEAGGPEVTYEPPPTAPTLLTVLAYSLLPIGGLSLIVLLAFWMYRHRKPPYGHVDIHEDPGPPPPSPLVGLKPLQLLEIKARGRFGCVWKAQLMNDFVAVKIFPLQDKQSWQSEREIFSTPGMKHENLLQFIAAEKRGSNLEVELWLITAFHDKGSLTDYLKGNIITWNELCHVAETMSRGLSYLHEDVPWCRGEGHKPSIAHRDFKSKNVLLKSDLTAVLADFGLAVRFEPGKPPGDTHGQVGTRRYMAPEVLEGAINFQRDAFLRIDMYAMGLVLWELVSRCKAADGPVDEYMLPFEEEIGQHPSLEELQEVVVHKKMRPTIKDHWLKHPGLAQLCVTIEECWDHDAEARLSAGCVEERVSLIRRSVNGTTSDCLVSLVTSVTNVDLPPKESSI

Compound = CC[C@H](C)[C@H](NC(=O)[C@H](CC(C)C)NC(=O)[C@@H](N)CC(N)=O)C(=O)N[C@@H](Cc1ccc(O)cc1)C(=O)N[C@@H](CCCNC(=N)N)C(=O)N[C@@H](CC(N)=O)C(=O)N[C@@H](CC(C)C)C(=O)N[C@@H](Cc1c[nH]cn1)C(=O)N[C@@H](CC(C)C)C(=O)O; target = HLA class I histocompatibility antigen, A alpha chain, allele A*02:01 (Homo sapiens, UniProt P04439); test = binding, competitive radioligand binding; setting = 48 h, 37 °C, with: radiolabelled FLPSDYFPSV 1 nM; IC50 = < 0.2 µM
Compound = CC[C@H](C)[C@@H]1NC(=O)[C@H](CC(C)C)NC(=O)[C@H](Cc2ccc(O)cc2)NC(=O)[C@H]([C@@H](C)CC)NC(=O)[C@H]([C@@H](C)O)NC(=O)[C@H](Cc2ccc(O)cc2)NC(=O)CSC[C@@H](C(=O)NCC(N)=O)NC(=O)[C@H](CO)NC(=O)[C@H](Cc2c[nH]cn2)NC(=O)[C@H](C(C)C)NC(=O)[C@H](C)NC(=O)[C@H](Cc2ccccc2)NC(=O)[C@H](CC(C)C)NC(=O)[C@H](Cc2ccc(O)cc2)NC(=O)[C@H](CCCNC(=N)N)NC(=O)[C@H](CCCCN)NC(=O)[C@H](CCC(N)=O)NC1=O; target = NNMT (Homo sapiens, UniProt P40261); test = enzyme activity, inhibitor, mass spectrometry; IC50 = 2.24 µM
Compound = N#Cc1cn([C@@H]2O[C@H](CSCC[C@H](N)C(=O)O)[C@@H](O)[C@H]2O)c2ncnc(N)c12; target = N6-adenosine-methyltransferase catalytic subunit, with METTL14 (METTL3, Homo sapiens, UniProt Q86U44); test = enzyme activity, inhibitor, radiometric; setting = METTL3-METTL14 complex; IC50 = 0.9 µM
Compound = Cc1cc([C@H](NC(=O)c2cnccc2-c2ccc(C(F)(F)F)cc2)C(=O)N(C)C)cc(C(F)(F)F)c1; target = NKG2-D type II integral membrane protein, with ULBP6 (KLRK1, Homo sapiens, UniProt P26718); test = ligand binding, inhibitor, TR-FRET; system = HEK293 expressing NKG2D and DAP10; setting = with: ULBP6-AF647; IC50 = 0.4 ± 0.3 µM
Compound = CC[C@H](C)[C@@H]1NC(=O)[C@H](CCCNC(=N)N)NC(=O)[C@@H]2CCCN2C(=O)[C@H](C(C)C)NC(=O)[C@H](CO)NC(=O)[C@H]([C@@H](C)O)NC(=O)CNC(=O)[C@H](CC(=O)O)NC(=O)[C@@H](NC(=O)[C@@H](N)C(C)C)CSSC[C@@H](C(=O)N[C@H](C(=O)O)C(C)C)NC1=O; target = ACVR2B (Homo sapiens, UniProt Q13705); test = reporter gene, antagonist, item: Smad2/3; system = HEK293T; setting = 4 h, with: activin A 0.33 ng/mL; IC50 = > 100 µM
Compound = CC(=O)N[C@@H](CCCNC(=N)N)C(=O)N[C@@H](Cc1ccc(O)cc1)C(=O)N[C@@H](CCCNC(=N)NC(=O)NCCCCN)C(=O)N[C@@H](CC(C)C)C(=O)N[C@@H](CCCNC(=N)N)C(=O)N[C@@H](Cc1ccc(O)cc1)C(=O)O; target = NPY4R (Homo sapiens, UniProt P50391); test = ligand displacement; IC50 = > 5 µM
Compound = CCC12C=CCN3CCC4(c5ccc(OC)cc5N(C)C4C(O)(C(=O)OC)C1O)C32 (centres unmarked); target = NR1I2 (Homo sapiens, UniProt O75469); IC50 = 41.4 µM
Compound = CC(C)[C@H](NC(=O)[C@H](Cc1c[nH]c2ccccc12)NC(=O)[C@@H](N)Cc1ccccc1)C(=O)N1CCC[C@H]1C(=O)O; target = DPP4 (Homo sapiens, UniProt P27487); test = enzyme activity, inhibitor, absorbance; IC50 = 342 µM
Compound = COC(=O)C=CCCC(NC(=O)c1ccncc1C(=O)O)C(=O)NC(C(=O)N1CC(=O)CC1C(=O)NC(C(=O)NC(C(N)=O)C1CCCCC1)C1CCCCC1)C(C)(C)C (centres unmarked); target = coagulation factor XIII A chain (Oryctolagus cuniculus, UniProt A0A5F9CS22); test = transamidation activity, inhibitor; setting = rabbit enzyme, with: dansylcadaverine into N,N-dimethylcasein; IC50 = 0.007 ± 0.0017 µM
Compound = CC(C)[C@H](NC(=O)N[C@H](C(=O)N[C@H]1/C=C/CCNC(=O)/C=C/[C@H](C(C)C)NC1=O)C(C)C)C(=O)O; target = PSMB5 (Homo sapiens, UniProt P28074); test = chymotrypsin-like activity, inhibitor; system = human constitutive proteasome; setting = with: Suc-LLVY-AMC; IC50 = 0.18 µM
Compound = COc1ccc(-c2coc3cc(OCCN4CCCCC4)ccc3c2=O)cc1; target = Ache (Rattus norvegicus, UniProt P37136); test = enzyme activity, inhibitor, Ellman; IC50 = 0.264 µM
Compound = CC(C)NCc1ccc(C[C@@H]2NC(=O)[C@@H](Cc3c[nH]c4ccccc34)NC(=O)[C@H](Cc3ccccc3)NC(=O)[C@H](Cc3ccccc3)NC(=O)[C@H](CCCCN)NC(=O)[C@@H](N)CSSC[C@@H](C(=O)O)NC(=O)[C@H](CO)NC(=O)[C@H]([C@@H](C)O)NC(=O)[C@H](Cc3ccc(O)cc3)NC(=O)[C@H]([C@@H](C)O)NC2=O)cc1; target = SSTR2 (Homo sapiens, UniProt P30874); test = ligand displacement, radioligand; setting = cell membranes; IC50 = > 1 µM
Compound = COc1cc(/C=C(\C#N)C(=O)Nc2nnc(C(F)(F)F)s2)ccc1OC(=O)N1CCN(C(=O)CCCC(=O)NCCCC[C@@H]2NC(=O)[C@@H](Cc3ccc(O)cc3)NC(=O)[C@H](CC(=O)O)NC(=O)CNC(=O)[C@H](CCCNC(=N)N)NC2=O)CC1; target = CSNK2A1 (Homo sapiens, UniProt P68400); test = enzyme activity, inhibitor; setting = with: ATP 25 µM, casein; IC50 = 63.8 µM
Compound = CC[C@@H]1C(=O)N(C)c2cnc(Oc3ccc(C(=O)NCCCC[C@H](NC(C)=O)C(=O)NCCOCCOCC(=O)NCCOCCOCC(=O)NCCOCCOCC(=O)NCCOCCOCC(=O)N4CCC[C@H]4C(=O)N[C@@H](CC(C)C)C(=O)N[C@@H](Cc4cncn4CCCCCCCCc4ccccc4)C(=O)N[C@@H](CO)C(=O)N[C@H](C(N)=O)[C@@H](C)OP(=O)(O)O)cc3OC)nc2N1CC(C)C; target = PLK1 (Homo sapiens, UniProt P53350); test = enzyme activity, inhibitor, FRET; IC50 = > 10 µM
Compound = CC(=O)CCC1C(=O)NC(C(C)C)C(=O)NC(Cc2cc(O)cc(F)c2)C(=O)N2CCCC(N2)C(=O)OC(C(C)=CC=CC(=O)N2CCCCO2)CC=CC=CC(O)C(C)C1O (centres unmarked); target = ABCB1 (Homo sapiens, UniProt P08183); test = P-glycoprotein transport, inhibitor; system = MDR1-MDCK; setting = 60 min, pH 7.4, with: loperamide 5 µM; IC50 = > 50 µM
Compound = CC(C)C[C@H](NC(=O)[C@H](C)NC(=O)[C@H](CO)NC(=O)[C@H](CC(=O)O)NC(=O)[C@H](CCC(=O)O)NC(=O)[C@@H]1CCCN1C(=O)[C@H](CC(=O)O)NC(=O)[C@H](CCC(=O)O)NC(=O)[C@@H]1CCCN1C(=O)[C@@H](NC(=O)[C@H](CC(C)C)NC(=O)[C@@H](N)CCC(=O)O)C(C)C)C(=O)O; target = HLA-DRA/HLA-DRB3 (Homo sapiens, UniProt P01903+P79483); test = binding, competition binding; system = purified HLA-DR; setting = 48 h, with: radiolabelled probe peptide 0.1-1 nM; IC50 = > 5 µM
Compound = O=C(O)CCn1c(=O)oc2cc(Cl)c(Cl)cc21; target = Kynurenine 3-monooxygenase (Rattus norvegicus, UniProt O88867); test = enzyme activity, inhibitor; system = HEK cells expressing target; IC50 = 7 µM
Compound = COC(=O)C1CN1S(=O)(=O)c1cccc(C)c1 (centres unmarked); target = PDIA3 (Homo sapiens, UniProt P30101); test = enzyme activity, inhibitor, absorbance; setting = pH 7.6; IC50 = > 200 µM
Compound = Cc1cc(Nc2cc(CN(C)C)cc(NC(=O)c3cc(CN(C)C)cc(Nc4ccnc5ccccc45)c3)c2)nc(N)n1; target = DNA polymerase eta (POLH, Homo sapiens, UniProt Q9Y253); test = enzyme activity, inhibitor; IC50 = 3.9 µM
Compound = CC(=O)N[C@@H](Cc1ccccc1)C(=O)N[C@@H](CC(C)C)C(=O)N[C@H](C(=O)N[C@@H](CC(=O)O)C(=O)CCl)[C@@H](C)O; target = Caspase-6 (CASP6, Homo sapiens, UniProt P55212); test = enzyme activity, inhibitor, fluorescence; IC50 = 43.4 µM
Compound = C[C@H](CS)C(=O)Nc1cccc(-n2nccn2)c1; target = Metallo-beta-lactamase type 2 (Serratia marcescens, UniProt P52699); test = inhibitor; setting = 10 min preincubation, with: FC5 substrate; IC50 = 3.7 µM
Compound = CN(C(=O)c1ccn2ncc(-c3ccc(C(N)=O)cc3)c2c1)C1CCC(C#N)CC1 (centres unmarked); target = Phosphatidylinositol 4-kinase (Cryptosporidium parvum, UniProt Q5CVD3); test = enzyme activity; setting = with: ATP 3 µM; IC50 = 3.7 µM
Compound = CCc1ccc([C@@H]2C[C@H](C(F)(F)F)n3ncc(C(=O)NCc4ccc(OC)cc4)c3N2)cc1; target = Cytochrome P450 2C9 (CYP2C9, Homo sapiens, UniProt P11712); test = inhibitor; IC50 = 4.4 µM

Excerpt of the above:
Compound = CC[C@H](C)[C@H](NC(=O)[C@H](CC(C)C)NC(=O)[C@@H](N)CC(N)=O)C(=O)N[C@@H](Cc1ccc(O)cc1)C(=O)N[C@@H](CCCNC(=N)N)C(=O)N[C@@H](CC(N)=O)C(=O)N[C@@H](CC(C)C)C(=O)N[C@@H](Cc1c[nH]cn1)C(=O)N[C@@H](CC(C)C)C(=O)O; target = HLA class I histocompatibility antigen, A alpha chain, allele A*02:01 (Homo sapiens, UniProt P04439); test = binding, competitive radioligand binding; setting = 48 h, 37 °C, with: radiolabelled FLPSDYFPSV 1 nM; IC50 = < 0.2 µM
Compound = CCC12C=CCN3CCC4(c5ccc(OC)cc5N(C)C4C(O)(C(=O)OC)C1O)C32 (centres unmarked); target = NR1I2 (Homo sapiens, UniProt O75469); IC50 = 41.4 µM
Compound = N#Cc1cn([C@@H]2O[C@H](CSCC[C@H](N)C(=O)O)[C@@H](O)[C@H]2O)c2ncnc(N)c12; target = N6-adenosine-methyltransferase catalytic subunit, with METTL14 (METTL3, Homo sapiens, UniProt Q86U44); test = enzyme activity, inhibitor, radiometric; setting = METTL3-METTL14 complex; IC50 = 0.9 µM
